Results pooled from the literature.
A part holds a random share of what one study measured. Substitutions count along the parent as printed.

Study 1
Target: Fragile X messenger ribonucleoprotein 1, C-terminal low-complexity region (Fmr1, Mus musculus, UniProt P35922)
Method: RNA Bind-n-Seq
Form: RNA
Sample: in vitro
Tested at: 200 nM
Setting: whole 134-nt RNA, ends assumed
Added: 150 mM KCl
Relative to: input library
Direction: higher = stronger binding
Measurement: log2 enrichment
Shared flanks, not repeated: GGGAGUUCUACAGUCCGACGAUC … UGGAAUUCUCGGGUGUCAAGG
CCUCAAGUCCUGUGCUACACAUCGUAUGUACCGAAUCGGGCGGGCGGCGGGGAAAGUAUUAUGUUACGCCGUUCGGAUCUGCACUUCCAG: 0.985
UACCCUCGUGCCCCUGUUUUUCCUGGCCGUGGUAGUUACUCAAACAGAGGGAACUACAACAGAGGUGGAAUGCCCAACAGAGGGAACUAC: -0.797
CACAGACAACACGCACCCAAACAGACACAGAGGGAAGGGGUUGGGAUGGGGACAGGGUGCACAGCAGGGCGGGGUAGGACCCCAGCCCCU: 1.27
ACCAUGCAGGUGGGCAUCUUUGGGAAGUGGUGCAAGGGGGGGAUAGGGAGGGGGGUAACACUUUGGGAACAGGUGGUCCCAGGUCGUUUC: 0.927
CCUGUGCUACACAUCGUAUGUACCGAAUCGGGUUUUUGGGUUUUUUUGGGAAAAAAAGGGAAAGUAUUAUGUUACGCCGUUCGGAUCUGC: -0.745
UCAAGUCCUGUGCUACACAUCGUAUGUACCGAAUCGGGAAAAAGGGAGGGUGGGAAAGUAUUAUGUUACGCCGUUCGGAUCUGCACUUCC: 1.19
UGGCCCUGGUGGCAUGCGGGGAGGAAGAGGUGGCCUCAUGGAUCGUGGUGGUCCCGGUGGAAUGUUCAGGGGUGGCCGUGGUGGAGACAG: 0.177
UUAUUCUGUGUGACACCUGCCCUCGUGCCUACCACCUCGUCUGCCUUGAUCCUGAGCUUGACCGGGCUCCAGAGGGCAAAUGGAGCUGCC: 0.707
GCAGGAAGUAAAAACAAAUGGAAAUGCUUCGGAUAGUGGCAGGGGUGGGGGUUGCUAAGGAAAGGGUGGGAUGGGAGUGGUUAAAGAGUU: 0.255

Study 2
Target: CCNA1, cyclin fold, Cln2 fusion (human)
Method: yeast growth competition, sequencing
Sample: yeast
Setting: weak parent motif
Relative to: not given
Direction: higher = stronger binding
Measurement: normalised enrichment score
Starting sequence: CDKN1A docking peptide (human); SKACRRLFGPVDS; partner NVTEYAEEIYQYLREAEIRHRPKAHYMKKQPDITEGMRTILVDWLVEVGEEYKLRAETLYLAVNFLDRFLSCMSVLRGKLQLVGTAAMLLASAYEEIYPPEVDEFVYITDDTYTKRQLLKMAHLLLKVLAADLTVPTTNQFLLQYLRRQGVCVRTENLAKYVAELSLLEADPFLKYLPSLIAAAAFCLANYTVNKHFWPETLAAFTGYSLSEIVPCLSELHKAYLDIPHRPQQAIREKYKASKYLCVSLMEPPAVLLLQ
SKACVRLFGPVDS [R5V]: -0.0309
SKACRRMFGPVDS [L7M]: 0.289
SQACRRLFGPVDS [K2Q]: 0.379
SKACRRLFGCVDS [P10C]: 0.0667
SKACRRLFGPWDS [V11W]: 0.741
SKAMRRLFGPVDS [C4M]: -0.422
STACRRLFGPVDS [K2T]: 0.581

Study 3
Target: Sal-like protein 4, full length isoform B (SALL4, Homo sapiens, UniProt Q9UJQ4-2, residues 1-616)
Method: universal PBM
Form: double-stranded DNA, one strand shown
Sample: in vitro
Tested at: not given
Setting: 8-mer, flanks averaged, mean of replicates
Direction: higher = stronger binding
Measurement: E-score
AGCAGGCC: -0.296
ACTATCAC: 0.154
ATCTCCGG: -0.0312
GCTAAAAC: -0.0547
ACTCTCTC: -0.154

Further values, each from its own experiment
PhoQ, residues 284 288 289 292 302 303 STVVAA — fold induction (PhoP, residues 12 14 15 18 19 SQCLL (Escherichia coli, UniProt P23836); Sort-seq, item: YFP reporter; E. coli; PhoQ-PhoP variant library, added: 10 µM Mg2+; relative to: high Mg2+ state, higher = stronger signaling): 8.86
